Results collected from several papers.

Structure (SMILES) | test | test system | setting | how to read | measurement | result
COc1ccc(OC)c(/C(=C\c2ccc(O)c(O)c2)C(=O)NCCc2ccc(O)cc2)c1 | – | C57BL mice, pseudo-germ-free and MPTP/p, plasma | oral, 75 mg/kg of FLZ, 8 weeks | reference: non-antibiotic control mice | plasma concentration | decreased
COc1cc2c(cc1OC)CC(=O)N(C[C@H]1CCCN(CCOc3ccc(F)cc3)C1)CC2 | – | C57BL/6 mice, plasma | intraperitoneal, 20 mg/kg, 15 min | reference: compound over cilobradine | plasma concentration ratio | < 1
N#Cc1nc(N2CCOCC2)nc(N(Cc2ccc(F)cc2)CC2CCCNC2)n1 (centres unmarked) | – | female CD-1 mice | intraperitoneal, 10 mg/kg, 7 h | – | plasma concentration | 14.3 ng/mL
N#Cc1cnc2cc(OCC3CCNCC3)c(F)cc2c1Nc1cc(F)c(OCc2cccc(Cl)n2)cc1Cl | – | C57BL/6J mice, diet-induced MASH, partial hepatectomy | dose not given, 2 h after hepatectomy | reference: vehicle | plasma glucose | no effect
CC1(C)C(/C=C/C2=C(Cl)C(=C/C=C3/N(CCCCCC(=O)O)c4ccccc4C3(C)C)/C[N+](C)(C)C2)=[N+](CCCCCC(=O)O)c2ccccc21 | – | CD-1 mice | intravenous, 25 nmol | – | plasma half-life | 1.67 h
CC(C)CCN(Cc1ccc(F)cc1)c1nc(C#N)nc(N2CCOCC2)n1 | – | female CD-1 mice | intraperitoneal, 10 mg/kg, 0.5 h | – | plasma concentration | 141 ng/mL
COc1ccc(OC)c(C(=Cc2ccc(O)c(OC)c2)C(=O)NCCc2ccc(O)cc2)c1 | – | C57BL mice, pseudo-germ-free and MPTP/p, plasma | oral, 75 mg/kg, 8 weeks | reference: non-antibiotic control mice | plasma concentration | decreased
Cn1cc2cc1C(=O)NC[C@H](N)CC(=O)Nc1cc(n(C)c1)C(=O)Nc1cc(n(C)c1)C(=O)Nc1cc(n(C)c1)C(=O)Nc1cc(n(C)c1)C(=O)NC[C@H](N)CC(=O)Nc1cn(C)c(n1)C(=O)Nc1cn(C)c(n1)C(=O)Nc1cc(n(C)c1)C(=O)N2 | HPLC | C57BL/6 mice, pooled plasma | intraperitoneal, 120 nmol/animal, 1.5 h | – | plasma concentration | ~0.7 µM
CC(C)CCN(c1nc(C#N)nc(NC2COC2)n1)C(C)c1ccc(F)cc1 (centres unmarked) | – | female CD-1 mice | intraperitoneal, 10 mg/kg, 0.5 h | – | plasma concentration | 1530 ng/mL
CN(CCCNC(=O)c1cccc(C(=O)O)c1)CCCNC(=O)c1cc(NC(=O)c2cc(NC(=O)c3cc(NC(=O)c4cc(NC(=O)[C@H](N)CCNC(=O)c5cc(NC(=O)c6cc(NC(=O)c7nc(NC(=O)c8nccn8C)cn7C)cn6C)cn5C)cn4C)cn3C)cn2C)cn1C | HPLC | C57BL/6 mice, pooled plasma | intraperitoneal, 120 nmol/animal, 1.5 h | – | plasma concentration | 13.8 µM
CSc1cc(C)[nH]c(=O)c1CN1CCc2c(Cl)c3c(c(C)c2C1=O)OC(C)(C1CCC(N(C)C)CC1)O3 (centres unmarked) | – | female CB-17 SCID mice, plasma | oral, 25 mg/kg once daily, 10 h post dose | – | plasma concentration | 12 ng/mL

Repeated from above:
Structure (SMILES) | test | test system | setting | how to read | measurement | result
COc1cc2c(cc1OC)CC(=O)N(C[C@H]1CCCN(CCOc3ccc(F)cc3)C1)CC2 | – | C57BL/6 mice, plasma | intraperitoneal, 20 mg/kg, 15 min | reference: compound over cilobradine | plasma concentration ratio | < 1
N#Cc1nc(N2CCOCC2)nc(N(Cc2ccc(F)cc2)CC2CCCNC2)n1 (centres unmarked) | – | female CD-1 mice | intraperitoneal, 10 mg/kg, 7 h | – | plasma concentration | 14.3 ng/mL
